Values quoted from earlier work that unrelated publications cite.
B1: CCL1; sequence looked up; chain KSMQVPFSRCCFSFAEQEIPLRAILCYRNTSSICSNEGLIFKLKRGKEACALDTVGWVQRHRKMLRHCPSKRK

Molecule = insulin (human); test = outcome: inhibited; system = neuronal media; conditions = concentration not given; endpoint = ADDL aggregation; result = inhibited
Molecule = bevacizumab; system = patients with recurrent glioblastoma; conditions = dose not given, CheckMate-143 trial; endpoint = median duration of response; result = 5.3 months
Molecule = B1 (CCL1); target or system = CCR8 S262A mutant; test = IP accumulation, agonist; endpoint = EC50; result = 5.2 nM
Molecule = KKRKGHKMATHKRKKRLRKNRHKKK; target or system = Pseudomonas aeruginosa; system = peptide, ATCC 15692; endpoint = MIC; result = 6 µM
Molecule = ifinatamab deruxtecan; system = patients with advanced solid tumours; conditions = dose not given, sqNSCLC cohort; endpoint = objective response rate; result = 40%
Molecule = indirubin-3'-monoxime; test = angiogenesis; system = zebrafish embryos; endpoint = IC50; result = 310 nM
Molecule = RQIKIWFQNKKWKWKK; target or system = Staphylococcus aureus; system = peptide; endpoint = MIC; result = 250 µg/mL
Molecule = brentuximab vedotin; system = relapsed/refractory ALCL patients, human; conditions = dose not given, PTCL; endpoint = overall response rate; result = 86%
Molecule = hydroxysafflor yellow A; test = anti-inflammatory effect; system = lung injury, acute, LPS-induced mouse; conditions = intravenous; endpoint = effective dose; result = 6 mg/kg
Molecule = pentagastrin; system = dog; conditions = dose not given; endpoint = gastric pH; result = 1 to 2
Molecule = retatrutide; system = human, obese adults; conditions = 12 mg, 24 weeks, trial; endpoint = body weight reduction; result = 17.5%
Molecule = pegcetacoplan; system = human; conditions = 1440 mg single dose; scale = baseline: baseline; endpoint = AP50 alternative pathway haemolytic activity; result = decreased
